Results of several laboratories.
Each line is one published result; not all experiments were run side by side. Values joined by “and” are separate records of one study, mostly repeats; a detail may differ. ± marks the error that the study gave.

COc1ccccc1-c1ccncc1C(=O)Nc1nnc(OCc2ccc(Cl)cc2)s1
colony survival (MDA-MB-231; 12 µM, mean of 3 replicates; reference: untreated): 71.9%

CCN(CC)CC(=O)Nc1cccc(-n2cc(-c3ccc4ccc(-c5cn(-c6cccc(NC(=O)CN(CC)CC)c6)nn5)cc4c3)nn2)c1
fold regulation (RCC4; PCR array, item: PDGFA; 5 x IC50, 6 h, normoxia; reference: untreated): -1.44

COc1cc(C(=O)N2CC[C@@H](O)[C@@H](N)C2)cc2nc(-c3cc4cccnc4n3CC3CC3)n(C)c12
inhibition (human neutrophils; protein citrullination, inhibitor, flow cytometry, item: citrullinated histone H3; 10 µM, with: ionomycin): 84.8% and 86.7% and 75.5% and 87.7%

CSCC[C@@H](N)C(=O)N[C@@H](CC(C)C)C(=O)N[C@@H](CCCNC(=N)N)C(=O)N[C@@H](Cc1c[nH]c2ccccc12)C(=O)N[C@@H](CO)C(=O)N[C@@H](CCCNC(=N)N)C(=O)N[C@@H](CCCCN)C(=O)N[C@@H](CCSC)C(=O)N1CCC[C@H]1C(=O)N[C@@H](CS)C(=O)N[C@H](C(=O)N[C@@H](CO)C(=O)O)C(C)C
inhibition (SUP-T1; CXCL12-induced Erk phosphorylation, phospho flow cytometry; concentration not given, with: CXCL12): no inhibition

CC(=O)NCC(=O)N[C@@H](Cc1ccccc1)C(=O)N[C@@H](Cc1ccccc1)C(=O)N[C@@H](Cc1ccc(O)cc1)C(=O)NCC(=O)N[C@@H](Cc1ccc(O)cc1)C(=O)NCC(=O)N[C@@H](CO)C(=O)N[C@@H](CO)C(=O)N[C@@H](CO)C(=O)N[C@@H](CCCNC(=N)N)C(=O)N[C@@H](CCCNC(=N)N)C(=O)N[C@@H](C)C(=O)N1CCC[C@H]1C(=O)N[C@@H](CCC(N)=O)C(=O)N[C@H](C(=O)O)[C@@H](C)O
GSK3β phosphorylation (mouse dermal papilla cells; western blot; 100 nM): increased

CCOc1cncc(-c2ccc(NC(=O)C3(c4ccnc(NS(=O)(=O)C5CC5)n4)CCOCC3)nc2)n1
IC50 (LP-1; cell growth or viability, ATP luminescence; 72 h): 164 nM

O=C1c2c(O)cc(O)cc2-c2c(-c3ccc(O)cc3)oc3cc(O)cc1c23
protein level ratio (LCC2 shControl cells; label-free MS proteomics, item: CDKN1A; 10 µM; reference: DMSO): 10.8

N#Cc1cccc(/C=C/C(=O)c2ccc(O)cc2)c1
fold change (U-87 MG; item: ALOXE3; concentration not given; reference: untreated): 31

O=C(Nc1nnc2c1c(-c1ccc(Cl)cc1)nc1sc(=Cc3ccco3)c(=O)n12)c1ccccc1 (mixture of isomers)
cell growth (OVCAR-4; SRB; 10 µM, NCI60 single-dose screen; reference: untreated): 50.3%

Cn1ncc2cc(-c3cncc(Cl)c3N3CCC4(CCNC4=O)CC3)ccc21
fold change in expression (LS174T; microarray, item: DAGLA; concentration not given, 4 h, gene set DGL-alpha; reference: untreated cells): -1.86

CNS(=O)(=O)Nc1nccc(Cc2c(C)c3ccc(Oc4ncccc4F)cc3oc2=O)c1F
IC50 (HLF; cell viability; 7 days): > 1000 nM

COc1ccc(NC(=O)c2ccc3[nH]c(-c4ccc(N(C)C)cc4)nc3c2)cn1
dead cell to confluence ratio (HCT116; IncuCyte; concentration not given, 12 h): 78.8 and 26.1 and 126

CCN(C(=O)c1cc(F)ccc1Oc1nncnc1N1CCC2(C1)CN([C@H](CCCN(C)CCOC)C(C)C)C2)C(C)C
GI50 (OVCAR-4; cell growth or viability; 7 days): > 10000 nM

CC(C)(C)c1cc(-c2ccc3cccnc3n2)nc(-c2ccc3cccnc3n2)c1.COc1ccncc1.[Cl-].[Cl-].[Ru+2].c1ccc2cc3nc4c5cccnc5c5ncccc5c4nc3cc2c1
phototoxicity index (B16-F10; resazurin; with: light 633 nm, 100 J/cm2; reference: dark EC50 over light EC50): 44

CC(C)c1ccc(N(C)c2ccc3c(c2)OCC[C@H]3CNc2cnccc2C(=O)O)cc1
IC50 (NCI-H1838; cell growth or viability, ATP luminescence; 7 days): ≥ 10000 nM

C=CC(=O)N1CCCC(n2c(=O)c3ncccc3n(Cc3ccc(Oc4ccccc4)cc3)c2=O)C1 (centres unmarked)
log2 fold change (Rec1; item: FST; concentration not given; reference: untreated): 0.952

NC(=O)c1ccc(-c2ccccc2Cl)c2c3c([nH]c12)CCC(N)C3 (centres unmarked)
IC50 (A549/DDP, cisplatin-resistant; cell growth, CellTiter-Glo; 96 h): 30.1 nM

[BH3-][P+]1(c2ccccc2)CCCCC1
IL-6 level (SW-620; ELISA; IC50, 72 h): 2.1 ± 0.35 pg/mL

CC(C)(C)c1cc(-c2ccc3cc4ccccc4nc3n2)nc(-c2ccc3cc4ccccc4nc3n2)c1.Cc1ccncc1.[Cl-].[Cl-].[Ru+2].c1ccc2cc3nc4c5cccnc5c5ncccc5c4nc3cc2c1
phototoxicity index (B16-F10; resazurin; with: light 523 nm, 100 J/cm2; reference: dark EC50 over light EC50): 4

C[C@@H]1Cc2c([nH]c3ccccc23)[C@@H](c2c(F)cc(/C=C/C(=O)O)cc2F)N1C12CC(C1)C2
log2 fold change (MCF7; RNA-seq, item: NOS1AP mRNA; 1 µM, 24 h, E2-induced gene; reference: DMSO vehicle): -1.12

Cc1cc(=O)oc2cc(OCCCCCCSC#N)ccc12
GI50 (T47D; cell growth or viability, SRB): 3600 nM

Cc1ccncc1.[Cl-].[Cl-].[Ru+2].c1cc(-c2ccc3cccnc3n2)nc(-c2ccc3cccnc3n2)c1.c1ccc2cc3nc4c5cccnc5c5ncccc5c4nc3cc2c1
phototherapeutic index (B16-F10; visible light 100 J/cm2; reference: dark EC50 over light EC50): 82

CN1CCCNC(=O)c2cccc(c2)C(=O)NCCCN(C)CCCNc2cccc3c2C(=O)c2cccc(c2C3=O)NCCC1
log2 fold change (SAS; RNA-Seq, item: ACTA2 mRNA; 1 µM, 6 h; reference: untreated cells): 1.23

CN(C)CCN1CCN(c2ccc3nc(-c4ccc5nc(-c6ccc(C(F)(F)F)cc6)[nH]c5c4)[nH]c3c2)CC1
growth percent (NCI/ADR-RES; cell growth, NCI-60 SRB; 10 µM, 48 h): 97.9%

Cc1cc(Cl)cc(-c2ccnc3cc(CN4C(=O)C5C(C4=O)C5(C)C)sc23)c1C[C@@H]1CNCCO1 (some centres unmarked)
G2/M phase cells (CHP-212 parental; PI flow cytometry; 1 µM, 24 h): 13.9%

O=C(C[Se]C(=O)c1cc2ccccc2o1)Nc1cccc(C(F)(F)F)c1
GI50 (NCI60 breast subpanel; NCI60 five-dose screen): 1850 nM

Cc1nc(Nc2ncc(C(=O)Nc3c(C)cccc3Cl)s2)cc(N2CCN(C(=O)CN)CC2)n1
late apoptotic cells (KU812; flow cytometry; concentration not given, 1 h): 2.69% and 3.23% and 2.61%

Cc1ncsc1-c1ccc(C(C)NC(=O)C2CC(O)CN2C(=O)C(NC(=O)CCCCCCCCCCN2CCCC(Nc3ncc(Cl)c(Nc4ccccc4S(=O)(=O)C(C)C)n3)C2)C(C)(C)C)cc1 (centres unmarked)
log2 fold change (22Rv1; RNA-seq, item: RDH10 mRNA; concentration not given; reference: DMSO): -1.24

O=C(C[Se]C(=O)c1ccccc1Nc1cccc(C(F)(F)F)c1)Nc1cccc(C(F)(F)F)c1
GI50 (NCI60 breast subpanel; NCI60 five-dose screen): 1680 nM

For quick reference, copied from above:
CN(C)CCN1CCN(c2ccc3nc(-c4ccc5nc(-c6ccc(C(F)(F)F)cc6)[nH]c5c4)[nH]c3c2)CC1
growth percent (NCI/ADR-RES; cell growth, NCI-60 SRB; 10 µM, 48 h): 97.9%

CN1CCCNC(=O)c2cccc(c2)C(=O)NCCCN(C)CCCNc2cccc3c2C(=O)c2cccc(c2C3=O)NCCC1
log2 fold change (SAS; RNA-Seq, item: ACTA2 mRNA; 1 µM, 6 h; reference: untreated cells): 1.23

CCOc1cncc(-c2ccc(NC(=O)C3(c4ccnc(NS(=O)(=O)C5CC5)n4)CCOCC3)nc2)n1
IC50 (LP-1; cell growth or viability, ATP luminescence; 72 h): 164 nM
